Published values collected from several papers.
Parts stem from different laboratories: compare values within a part only.

Study 1
Target: RNA binding protein fox-1 homolog 2, RRM domain, GST-SBP tag (RBFOX2, Homo sapiens, UniProt O43251-10, residues 100-194)
Method: RNA Bind-n-Seq
Molecule type: RNA
Medium: in vitro
Concentration: 365 nM
Notes: natural RNA segment, single round, ends assumed
Reference: no-protein control
Reading: higher = stronger binding
Constant ends, left off below: GGGAGUUCUACAGUCCGACGAUC … UGGAAUUCUCGGGUGCCAA
Target sequence (chain): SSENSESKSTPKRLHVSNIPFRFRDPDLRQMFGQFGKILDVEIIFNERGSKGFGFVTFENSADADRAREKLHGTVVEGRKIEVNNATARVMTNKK
Oligonucleotide | RBNS enrichment (R)
ACAUUUGAAACAAGCUAACCCUGGGGAGUCUAUGGUCUCUUCACUCAGGUCUCAGCUAUAAUUCUGUUAUAUGAGGGGCAGUGGACAGUUCCCUAUGCCAACUCACGACU | 0.268
UAUGGCUAUGAAUCAGGAAAGAGAUUAGAACAUUUAAUAAUGUAUGUACAGCUGGUGCUUAGUUUUUUUUUAAUCUAAAUUUAAUUACCUUAUUGGAUAUUUGAUAUUUG | 1.13
CAUUGUUAUUCAUUUUGUAAAAUACUAGUGUUUAUUUUCAUUUUUUGUAAAAUUUAAACAUCGUAUGCGCAUAAACAAAAAUGAACAAGAAUUAGGGGGAAAUAACAUUU | 0.788
AAUGAUGUAUGCCCACCUUUCAUUUCUGCUAUUCAAGUUUUGACUAUGUAUCUAGCUUGUGCAAAACCCUUAAGUAUGAGGGAUAGGACCCCCACCCAUGGGUUUACAUA | 0.763
CAUGACUGCAGUAUGCAUGUAUUUUUUUCCUUCUCUGUGUUUUCUAAACUUACACUAAAGGAUUCAUCAAAUCAUCUUGUUCAGAUGGCUCAGGAUUGUAUUUAUUUUGC | 1.73
CUGUUGCCUAGUAUUCACCUGUGUUACUUUGUAUAUGUCACAGUUCUAUGUUUAAUGCUUUACUAAUUUCCAGUAAGACUAUAUUUAAAACUACAUAGUCUUUCCUUAUU | 1.28
UAACAAAAUGGGGUGUUAAUUUUUGUACAGUCUGUGGGCAUUUACACAUUUUUAAUGUAUUAAAAUUUGGUAAUUAUGUGUACAUUAAAUUAAUAAAAGUUACUUCUAGU | 1.32
CUGUUGCUGGCUUACAGUUUCUCUGUGUGCUUUGUGGUUGCUGUCAUAUUUGCUCUAGAAGAAAAAAAAAAAAGGAGGGGAAAUGCAUUUUCCCCAGAGAUAAAGGCUGC | 0.479
ACCAGUGCUGAAGAAUAAUGAGUGAGAACACUUAAUUUGAGAGUUAGACAAAUACAGCCCACUUUGGAUUUCAUCCUAGUGAACAGACUAAAACUUUGCAGUAAAAUACC | 0.541
AACUGUCACCCAUAUGGUCCCUGGGCCACCGGGCAGCCUGGGGCGGUGUGUGUGCCAUGUCACAGCAUGGCCUCUCGGCCUUGGGAAGGAAGGCAGUGCCUGCUCUGCUG | 0.607
CUUUCAGAUUUCCAUAAAGCCAGCAAUCAGAAAGGAUCUCUCUUCCAUACCACUGUUCUUGCUAAAAGGAAGCUGCAUAUUUGUGUUCUUUCAUCUGUGGCUCUUUGCUA | 0.513
GCCUCUCUCACUGGUCAUGUAUUUAUUCCAUAUUUAUAUGGUCUACUUCCUGUGGCUGGGAGCAGCAGCUCCUGAAGGUUCCGUGGGGGUGCGGGGGGUUGGACAGGACA | 0.292

Study 2
Target: Centromere-binding protein 1, full length, N-terminal tag (CBF1, Saccharomyces cerevisiae, UniProt P17106, residues 1-351)
UniProt P17106, sequence (whole entry, looked up): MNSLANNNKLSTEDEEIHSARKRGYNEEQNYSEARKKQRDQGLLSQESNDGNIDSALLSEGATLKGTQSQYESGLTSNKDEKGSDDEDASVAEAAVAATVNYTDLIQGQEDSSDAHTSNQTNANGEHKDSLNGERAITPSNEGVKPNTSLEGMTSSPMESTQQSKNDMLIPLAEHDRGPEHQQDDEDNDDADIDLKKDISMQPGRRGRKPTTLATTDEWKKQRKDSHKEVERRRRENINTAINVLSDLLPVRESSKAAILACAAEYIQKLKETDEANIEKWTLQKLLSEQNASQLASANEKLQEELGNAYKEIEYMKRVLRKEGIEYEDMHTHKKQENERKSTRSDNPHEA
Method: protein-binding microarray
Molecule type: double-stranded DNA, one strand shown
Medium: in vitro
Concentration: 0.8 µM
Notes: whole 60-bp probe, no competitor
Reading: higher = stronger binding
Constant ends, left off below: … GTCTTGATTCGCTTGACGCTGCTG
Oligonucleotide | fluorescence intensity
CTACAGGTAACAAATCTGGTGAAATCACCATTATTC | 496 a.u.
GAACAGAAAAGTTTCCACATGATATTTATTAGCTAG | 1030 a.u.
GAATTGGAGTCTACACACGTTTCCAACCTCTGCTAG | 532 a.u.
TGTACGAAGCTATATCAGACATATATAGTAGTTAGG | 506 a.u.
TGTACGAAGCTATTACAGGAGATTATAGTAGTTAGG | 499 a.u.
CTACAGCGAATGCACCACCTCCAGAGGCATTCCTTC | 492 a.u.
GAATCATACTAGTCACACGTTGCTCGAGAACAGTAG | 765 a.u.
CTAGTAACTGCCGGTGGTGGTTTTCCTATTAGGTTC | 499 a.u.
CTATAGAACGCTGATCAGCTGTGTATAGTTTAATTC | 640 a.u.
GAAAAGACTAGCAACCACGTTTTGTTTTGTAGTTAG | 570 a.u.
CTATTGTGCGATCATCACCAAGATAACAAGAGATTC | 537 a.u.
CTAAGTGCGGCTTTTCATCAGACGTGGAATGTCTTC | 543 a.u.
GAAGTGGGTGTCCATGTGATTTAAATGATAAATTAG | 2550 a.u.
GAACAATGGAAAAGGAACATCACGTGAAGCGAATAG | 12500 a.u.
GAAAAGGACTTATAAAACGTGAACTTTCTAGTTTAG | 557 a.u.
CTAGGCTTAGATTTTCATGTGAAAAGATAATGTTTC | 533 a.u.
CTACGCTCTTGTTTTCGCGTGCCTCTTCTACAATTC | 567 a.u.
GAATGATTTTTTGCTCACGTGCTCTGCGGGTAATAG | 13700 a.u.
CTAAATCACTCCCCCCACGTTTTTTTATCCAGTTTC | 601 a.u.
GAACACCTGCAAGGGGTCGTGCCAATGACGAAATAG | 554 a.u.

Study 3
Target: Interferon regulatory factor 3, full length, phosphomimetic (IRF3, Homo sapiens, UniProt Q14653, residues 1-427, S386D/S396D/S398D/S402D/T404D/S405D)
Method: protein-binding microarray
Molecule type: double-stranded DNA, one strand shown
Medium: in vitro
Concentration: 2540 nM top
Notes: 60-bp whole probe
With: salmon DNA 0.4 mg/ml
Reference: random background probes
Reading: higher = stronger binding
Constant ends, left off below: GCCTAGCAC … GTCTTGATTCGCTTGACGCTGCTG
Residues (chain): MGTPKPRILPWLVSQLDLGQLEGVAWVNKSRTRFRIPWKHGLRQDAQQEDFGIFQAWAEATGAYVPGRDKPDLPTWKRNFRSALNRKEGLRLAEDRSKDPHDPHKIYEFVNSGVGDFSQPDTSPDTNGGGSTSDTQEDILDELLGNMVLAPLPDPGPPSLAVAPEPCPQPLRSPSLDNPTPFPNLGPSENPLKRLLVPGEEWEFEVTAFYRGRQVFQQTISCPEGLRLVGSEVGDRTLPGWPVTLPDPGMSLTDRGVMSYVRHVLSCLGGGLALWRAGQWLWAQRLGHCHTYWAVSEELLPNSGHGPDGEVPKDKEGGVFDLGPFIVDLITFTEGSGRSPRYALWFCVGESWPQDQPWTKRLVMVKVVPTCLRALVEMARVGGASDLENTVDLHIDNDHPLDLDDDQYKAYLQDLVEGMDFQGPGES
Oligonucleotide | fitted relative affinity
TCAAACATCATTTTTCCACTGTGCTAG | 0.304 z-score
AGTGTCATGTTTCTATGGGCGTGCTAG | 1.33 z-score
TTAGGTAGCGGGTATCGGTTAGTGCTA | 0.404 z-score
TTAGATCTCCTACTGCTTTAGTGCTAG | 0.221 z-score
TCAGGAAACCGGAAAGGCACTGTGCTA | 0.304 z-score
CTCTGGGGGGTGGGATGAAGGTGCTAG | 0.27 z-score
TCAATTTTCGTTTTTATACTGTGCTAG | 4.81 z-score
TTAGATTTCCGTCTCGATTAGTGCTAG | 3.63 z-score
TTAGGTCTCGAACTGGGTTAGTGCTAG | -0.16 z-score
GACGGTATCGGTTTCAGGACGTGCTAG | 6.16 z-score
TCAACTAGGAGTTTTCAGACTGTGCTA | 0.409 z-score
TTAGCTTTCGGACTGGGTTAGTGCTAG | 1.5 z-score
AAGTAAAATGCAAAGAGGAAGTGCTAG | -0.419 z-score
TTAGGACTAGACACTGGGTTAGTGCTA | -0.639 z-score
GACGGTTTCGGTATCGCGACGTGCTAG | 7.73 z-score
TTAGGTTACCTTCTCCTTTAGTGCTAG | 6.73 z-score
TTCACTATTGCTTCCTCTTTGTGCTAG | 0.552 z-score
GACGGTTCCGGGACTGGGGACGTGCTA | 1.06 z-score
CATTTTTTTTTTCTACTTCTGTGCTAG | 2.43 z-score
GACGGTATCTTTTTCCTGACGTGCTAG | 2.42 z-score
TCTCTGCTACCCTCTGAAAGTGTGCTA | 0.0722 z-score
TCATATATACAAACTAAGACTGTGCTA | 0.721 z-score
GACGGACTGCTTATCCTGCCGTGCTAG | -0.483 z-score
ACGTAGAAGGAAGAAGCACGGTGCTAG | -0.461 z-score
TTACGACTGCTACTGCTTTAGTGCTAG | -0.584 z-score

Study 4
Target: Fragile X messenger ribonucleoprotein 1, C-terminal low-complexity region (Fmr1, Mus musculus, UniProt P35922)
Method: RNA Bind-n-Seq
Molecule type: RNA
Medium: in vitro
Concentration: 200 nM
Notes: whole 134-nt RNA, ends assumed
With: 150 mM LiCl
Reference: input library
Reading: higher = stronger binding
Library: 7-deaza-guanosine replaces G
Constant ends, left off below: GGGAGUUCUACAGUCCGACGAUC … UGGAAUUCUCGGGUGUCAAGG
Oligonucleotide | log2 enrichment
CACAGACAACACGCACCCACACAGACACAGAGGGAAGGGGUUAGGAUGGGGACAGGGUGCACAGCAGGGCGGGGUAGGACCCCAGCCCCU | -0.823
UAACUUGAGAGGAGGAUCUGAUGGAUAUGGCAGUGGACGUGGAUUUGGGGAUGGCUAUAAUGGGUAUGGAGGAGGACCUGGAGGUGGCAA | 0.445
CCUGUGCUACACAUCGUAUGUACCGAAUCGGGAAAAAAAGGGAAAAAGGGAAAAAAAGGGAAAGUAUUAUGUUACGCCGUUCGGAUCUGC | -0.349
CACAGACAACACGCACCCACACAGACACAGAGGGAAGGGGUUGGGAUGUGGACAGGGUGCACAGCAGGGCGGGGUAGGACCCCAGCCCCU | -1.83
GCAGGAAGUAAAAACAAAUGGAAAUGCUUCGGAUAGUGAAAGGGGUGGGGGUUGCUAAGGAAAGGGUGGGAUGGGAGUGGGUAAAGAGUU | 1.81
AAGUCCUGUGCUACACAUCGUAUGUACCGAAUCGGGAAAAAGGGUUUGGGAAAGGGAAAGUAUUAUGUUACGCCGUUCGGAUCUGCACUU | -2.2
UCCUCAAGUCCUGUGCUACACAUCGUAUGUACCGAAUCGGAAAGGAGGUGGAAAGUAUUAUGUUACGCCGUUCGGAUCUGCACUUCCAGC | -2.02
GCAGGAAGUAAAAACAAAUGGAAAUCCUUCGGAUAGUGGCAGGGGUGGGGGUUGCUAAGGAAAGGGUGGGAUGGGAGUGGGUAAAGAGUU | 1.72
CACAGACAACACGCACCCACACAGACACAGAGGGAAGGGGUUGGGAUGGGGACAGGGUUCACAGCAGGGCGGGGUAGGACCCCAGCCCCU | 0.0671
ACCAUGCAGGUGGGCAUCUUUGGGAAGUGGGGCAAGGGGGGGAUAGGGACGGGGGUAACACUUUGGGAACAGGUGGUCCCAGGUCGUUUC | 0.679
AAGUCCUGUGCUACACAUCGUAUGUACCGAAUCGGGGAAAGGGAAAGGGGAAAGGGGAAAGUAUUAUGUUACGCCGUUCGGAUCUGCACU | 0.935

Excerpt of the above (study 4):
Oligonucleotide | log2 enrichment
AAGUCCUGUGCUACACAUCGUAUGUACCGAAUCGGGGAAAGGGAAAGGGGAAAGGGGAAAGUAUUAUGUUACGCCGUUCGGAUCUGCACU | 0.935
GCAGGAAGUAAAAACAAAUGGAAAUGCUUCGGAUAGUGAAAGGGGUGGGGGUUGCUAAGGAAAGGGUGGGAUGGGAGUGGGUAAAGAGUU | 1.81
AAGUCCUGUGCUACACAUCGUAUGUACCGAAUCGGGAAAAAGGGUUUGGGAAAGGGAAAGUAUUAUGUUACGCCGUUCGGAUCUGCACUU | -2.2
CCUGUGCUACACAUCGUAUGUACCGAAUCGGGAAAAAAAGGGAAAAAGGGAAAAAAAGGGAAAGUAUUAUGUUACGCCGUUCGGAUCUGC | -0.349
UAACUUGAGAGGAGGAUCUGAUGGAUAUGGCAGUGGACGUGGAUUUGGGGAUGGCUAUAAUGGGUAUGGAGGAGGACCUGGAGGUGGCAA | 0.445
